{"data": "Experimental data pooled from the literature", "technique": "steady-state kinetics", "B1": "ileS (Streptococcus pneumoniae, UniProt Q04JB0); chain MKLKDTLNLGKTEFPMRAGLPTKEPVWQKEWEYAKLYQRRQELNQGKPHFTLHDGPPYANGNIHVGHAMNKISKDIIVRSKSMSGFYAPFIPGWDTHGLPIEQVLSKQGVKRKEMDLVEYLKLCREYALSQVDKQREDFKRLGVSGDWENPYVTLTPDYEAAQIRVFGEMANKGYIYRGAKPVYWSWSSESALAEAEIEYHDLVSTSLYYANKVKDGKGVLDTDTYIVVWTTTPFTITASRGLTVGADIDYVLVQPAGEARKFVVAAELLTSLSEKFGWADVQVLETYRGQELNHIVTEHPWDTAVEELVILGDHVTTDSGTGIVHTAPGFGEDDYNVGIANNLEVAVTVDERGIMMKNAGPEFEGQFYEKVVPTVIEKLGNLLLAQEEISHSYPFDWRTKKPIIWRAVPQWFASVSKFRQEILDEIEKVKFHSEWGKVRLYNMIRDRGDWVISRQRAWGVPLPIFYAEDGTAIMVAETIEHVAQLFEEHGSSIWWERDAKDLLPEGFTHPGSPNGEFKKETDIMDVWFDSGSSWNGVVVNRPELTYPADLYLEGSDQYRGWFNSSLITSVANHGVAPYKQILSQGFALDGKGEKMSKSLGNTIAPSDVEKQFGAEILRLWVTSVDSSNDVRISMDILSQVSETYRKIRNTLRFLIANTSDFNPAQDTVAYDELRSVDKYMTIRFNQLVKTIRDAYADFEFLTIYKALVNFINVDLSAFYLDFAKDVVYIEGAKSLERRQMQTVFYDILVKITKLLTPILPHTAEEIWSYLEFETEDFVQLSELPEVQTFANQEEILDTWAAFMDFRGQAQKALEEARNAKVIGKSLEAHLTVYPNEVVKTLLEAVNSNVAQLLIVSELTIAEGPAPEAALSFEDVAFTVERATGEVCDRCRRIDPTTAERSYQAVICDHCASIVEENFAEAVAEGFEEK", "B2": "PRODH2 157-515 (Homo sapiens, UniProt Q9UF12); chain YGQFVAGETAEEVKGCVQQLRTLSLRPLLAVPTEEEPDSAAKSGEAWYEGNLGAMLRCVDLSRGLLEPPSLAEASLMQLKVTALTSTRLCKELASWVRRPGASLELSPERLAEAMDSGQNLQVSCLNAEQNQHLRASLSRLHRVAQYARAQHVRLLVDAEYTSLNPALSLLVAALAVRWNSPGEGGPWVWNTYQACLKDTFERLGRDAEAAHRAGLAFGVKLVRGAYLDKERAVAQLHGMEDPTQPDYEATSQSYSRCLELMLTHVARHGPMCHLMVASHNEESVRQATKRMWELGIPLDGTVCFGQLLGMCDHVSLALGQAGYVVYKSIPYGSLEEVIPYLIRRAQENRSVLQGARRE", "B3": "enzyme (Acinetobacter baumannii, UniProt D0CBC8); chain MALVLDGRALAKQIEENLLVRVEALKAKTGRTPILATILVGDDGASATYVRMKGNACRRVGMDSLKIELPQETTTEQLLAEIEKLNANPDVHGILLQHPVPAQIDERACFDAISLAKDVDGVTCLGFGRMAMGEAAYGSATPAGIMTILKENNIEIAGKHAVVVGRSAILGKPMAMMLLQANATVTICHSRTQNLPELVKQADIIVGAVGKAELIQKDWIKQGAVVVDAGFHPRDGGGVGDIQLQGIEEIASAYTPVPGGVGPMTITTLIRQTVEAAEKALG", "B4": "SULT1A1 I89A (Homo sapiens, UniProt P50225); chain MELIQDTSRPPLEYVKGVPLIKYFAEALGPLQSFQARPDDLLISTYPKSGTTWVSQILDMIYQGGDLEKCHRAPIFMRVPFLEFKAPGAPSGMETLKDTPAPRLLKTHLPLALLPQTLLDQKVKVVYVARNAKDVAVSYYHFYHMAKVHPEPGTWDSFLEKFMVGEVSYGSWYQHVQEWWELSRTHPVLYLFYEDMKENPKREIQKILEFVGRSLPEETVDFVVQHTSFKEMKKNPMTNYTTVPQEFMDHSISPFMRKGMAGDWKTTFTVAQNERFDADYAEKMAGCSLSFRSEL", "B5": "BaiA2 (Clostridium scindens, UniProt P19337); chain MNLVQDKVTIITGGTRGIGFAAAKIFIDNGAKVSIFGETQEEVDTALAQLKELYPEEEVLGFAPDLTSRDAVMAAVGQVAQKYGRLDVMINNAGITSNNVFSRVSEEEFKHIMDINVTGVFNGAWCAYQCMKDAKKGVIINTASVTGIFGSLSGVGYPASKASVIGLTHGLGREIIRKNIRVVGVAPGVVNTDMTNGNPPEIMEGYLKALPMKRMLEPEEIANVYLFLASDLASGITATTVSVDGAYRP", "B6": "oxdC T165S (Bacillus subtilis, UniProt O34714); chain MKKQNDIPQPIRGDKGATVKIPRNIERDRQNPDMLVPPETDHGTVSNMKFSFSDTHNRLEKGGYAREVTVRELPISENLASVNMRLKPGAIRELHWHKEAEWAYMIYGSARVTIVDEKGRSFIDDVGEGDLWYFPSGLPHSIQALEEGAEFLLVFDDGSFSENSSFQLTDWLAHTPKEVIAANFGVTKEEISNLPGKEKYIFENQLPGSLKDDIVEGPNGEVPYPFTYRLLEQEPIESEGGKVYIADSTNFKVSKTIASALVTVEPGAMRELHWHPNTHEWQYYISGKARMTVFASDGHARTFNYQAGDVGYVPFAMGHYVENIGDEPLVFLEIFKDDHYADVSLNQWLAMLPETFVQAHLDLGKDFTDVLSKEKHPVVKKKCSK", "B7": "Tat (Mus musculus, UniProt Q8QZR1); chain WNVRPSDMSNKTFNPIRAIVDNMKVKPNPNKTVISLSIGDPTVFGNLPTDPEVTQAMKDALDSGKYNGYAPSIGYLSSREEVASYYHCPEAPLEAKDVILTSGCSQAIELCLAVLANPGQNILIPRPGFSLYRTLAESMGIEVKLYNLLPEKSWEIDLKQLESLIDEKTACLVVNNPSNPCGSVFSKRHLQKILAVAERQCVPILADEIYGDMVFSDCKYEPMATLSTNVPILSCGGLAKRWLVPGWRLGWILIHDRRDIFGNEIRDGLVKLSQRILGPCTIVQGALKSILQRTPQEFYQDTLSFLKSNADLCYGALSAIPGLQPVRPSGAMYLMVGIEMEHFPEFENDVEFTERLIAEQSVHCLPATCFEYPNFFRVVITVPEVMMLEACSRIQEFCEQHY", "B8": "sacB (Priestia megaterium, UniProt D5DC07); chain KGNDSKDFNNSYGISHITRDNMVKIPQQQNSDQFKVPAFDESTIKNIASAKGKNASGNTIDLDVWDSWPLQNADGTVATYHGYQIVFALAGDPKDSNDTSVYLFYKKAGDKSIDSWKNAGRVFKDSDKFVPNDPHLKNQTQEWSGSGTLTKDGKVRLFYTDYSGKQYGKQTLTTAQVNMSQPNDNTLKVDGVEDYKSIFDGDGKIYQTVQQFIDEGGYDTGDNHTLRDPHYIEDNGHKYLVFEANTGTEDGYQGEDSLYNRAYYGGNNPFFQSEKKKLLEGSNKEKASLANGALGIIELNDDYTLKKVMKPLITSNTVTDEIERANIFKKDGKWYLFTDSRGSKMTIDGIGQDDVYMLGYVSNTLTGKYKPLNDTGLVLHMDLDPNDKTFTYSHFAVPQTKGDNVVITSYMTNRGFYEDNHSTFAPSFLVNIDGSKTSVVKDRVLEQGQLTVDED", "B9": "HCT R356E (Coleus scutellarioides, UniProt E8ZAP2); chain MKIHVRDSTLVRPSAATPAVSLWNSNVDLVVPNFHTPSVYFYRPSGADNFFDTAVMKAALGRALVSFYPMAGRLKRDEDGRVEIDCNAEGVLFVEAESDGTVDDYGDFAPSLELRRLIPAVDYSQGISAYPLLVLQVTFFKCGGVSLGVGMQHHAADGFSGLHFINTWSDMARGLDITLPPFIDRTLLSARDPPQPQFKHVEYQPPPAMKTYEPAETVVSIFKLTKDQLTTLKAKSKEDGNTTTYSSYEMLSGHVWRCTCLARGLPEEQETKLYIATDGRSRLQPQLPPGYFGNVIFTATPLAVAGDLGSKPVWYAASKIHDALARMDNDYLRSALDFLELQPDLKALVRGAHTFECPNLGITSWVRLPIHDADFGWGRPIFMGPGGIAYEGLSFVLPSPTNDGSLSVAISLQAEHMKLFEKLLYQI", "note": "± gives the spread as reported.", "chain of UniProt Q47KB1 (whole entry, looked up)": "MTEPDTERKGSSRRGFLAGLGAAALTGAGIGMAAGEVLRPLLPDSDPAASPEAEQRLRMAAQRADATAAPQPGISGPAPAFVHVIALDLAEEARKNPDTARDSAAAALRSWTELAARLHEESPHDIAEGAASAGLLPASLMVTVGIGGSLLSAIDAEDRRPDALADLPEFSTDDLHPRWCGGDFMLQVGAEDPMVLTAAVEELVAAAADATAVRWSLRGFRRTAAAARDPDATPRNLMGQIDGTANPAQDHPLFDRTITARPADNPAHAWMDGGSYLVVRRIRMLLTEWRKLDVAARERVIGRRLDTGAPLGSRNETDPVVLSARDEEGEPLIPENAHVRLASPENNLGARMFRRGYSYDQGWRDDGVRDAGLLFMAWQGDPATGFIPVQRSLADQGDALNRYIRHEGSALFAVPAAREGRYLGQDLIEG", "chain of UniProt Q27593 (whole entry, looked up)": "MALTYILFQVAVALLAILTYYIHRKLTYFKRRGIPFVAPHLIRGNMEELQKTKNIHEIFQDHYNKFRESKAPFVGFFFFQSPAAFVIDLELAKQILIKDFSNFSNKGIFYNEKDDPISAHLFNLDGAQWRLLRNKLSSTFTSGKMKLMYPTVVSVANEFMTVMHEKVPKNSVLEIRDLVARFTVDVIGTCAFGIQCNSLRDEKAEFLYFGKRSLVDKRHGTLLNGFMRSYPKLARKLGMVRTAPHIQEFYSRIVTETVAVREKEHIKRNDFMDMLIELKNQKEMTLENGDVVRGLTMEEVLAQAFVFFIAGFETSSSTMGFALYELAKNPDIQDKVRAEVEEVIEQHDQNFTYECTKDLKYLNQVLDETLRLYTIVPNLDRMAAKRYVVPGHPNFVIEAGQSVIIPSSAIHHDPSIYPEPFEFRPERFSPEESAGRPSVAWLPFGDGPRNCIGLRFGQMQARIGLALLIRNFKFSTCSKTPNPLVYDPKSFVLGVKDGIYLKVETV", "chain of UniProt A1ZAW0 (whole entry, looked up)": "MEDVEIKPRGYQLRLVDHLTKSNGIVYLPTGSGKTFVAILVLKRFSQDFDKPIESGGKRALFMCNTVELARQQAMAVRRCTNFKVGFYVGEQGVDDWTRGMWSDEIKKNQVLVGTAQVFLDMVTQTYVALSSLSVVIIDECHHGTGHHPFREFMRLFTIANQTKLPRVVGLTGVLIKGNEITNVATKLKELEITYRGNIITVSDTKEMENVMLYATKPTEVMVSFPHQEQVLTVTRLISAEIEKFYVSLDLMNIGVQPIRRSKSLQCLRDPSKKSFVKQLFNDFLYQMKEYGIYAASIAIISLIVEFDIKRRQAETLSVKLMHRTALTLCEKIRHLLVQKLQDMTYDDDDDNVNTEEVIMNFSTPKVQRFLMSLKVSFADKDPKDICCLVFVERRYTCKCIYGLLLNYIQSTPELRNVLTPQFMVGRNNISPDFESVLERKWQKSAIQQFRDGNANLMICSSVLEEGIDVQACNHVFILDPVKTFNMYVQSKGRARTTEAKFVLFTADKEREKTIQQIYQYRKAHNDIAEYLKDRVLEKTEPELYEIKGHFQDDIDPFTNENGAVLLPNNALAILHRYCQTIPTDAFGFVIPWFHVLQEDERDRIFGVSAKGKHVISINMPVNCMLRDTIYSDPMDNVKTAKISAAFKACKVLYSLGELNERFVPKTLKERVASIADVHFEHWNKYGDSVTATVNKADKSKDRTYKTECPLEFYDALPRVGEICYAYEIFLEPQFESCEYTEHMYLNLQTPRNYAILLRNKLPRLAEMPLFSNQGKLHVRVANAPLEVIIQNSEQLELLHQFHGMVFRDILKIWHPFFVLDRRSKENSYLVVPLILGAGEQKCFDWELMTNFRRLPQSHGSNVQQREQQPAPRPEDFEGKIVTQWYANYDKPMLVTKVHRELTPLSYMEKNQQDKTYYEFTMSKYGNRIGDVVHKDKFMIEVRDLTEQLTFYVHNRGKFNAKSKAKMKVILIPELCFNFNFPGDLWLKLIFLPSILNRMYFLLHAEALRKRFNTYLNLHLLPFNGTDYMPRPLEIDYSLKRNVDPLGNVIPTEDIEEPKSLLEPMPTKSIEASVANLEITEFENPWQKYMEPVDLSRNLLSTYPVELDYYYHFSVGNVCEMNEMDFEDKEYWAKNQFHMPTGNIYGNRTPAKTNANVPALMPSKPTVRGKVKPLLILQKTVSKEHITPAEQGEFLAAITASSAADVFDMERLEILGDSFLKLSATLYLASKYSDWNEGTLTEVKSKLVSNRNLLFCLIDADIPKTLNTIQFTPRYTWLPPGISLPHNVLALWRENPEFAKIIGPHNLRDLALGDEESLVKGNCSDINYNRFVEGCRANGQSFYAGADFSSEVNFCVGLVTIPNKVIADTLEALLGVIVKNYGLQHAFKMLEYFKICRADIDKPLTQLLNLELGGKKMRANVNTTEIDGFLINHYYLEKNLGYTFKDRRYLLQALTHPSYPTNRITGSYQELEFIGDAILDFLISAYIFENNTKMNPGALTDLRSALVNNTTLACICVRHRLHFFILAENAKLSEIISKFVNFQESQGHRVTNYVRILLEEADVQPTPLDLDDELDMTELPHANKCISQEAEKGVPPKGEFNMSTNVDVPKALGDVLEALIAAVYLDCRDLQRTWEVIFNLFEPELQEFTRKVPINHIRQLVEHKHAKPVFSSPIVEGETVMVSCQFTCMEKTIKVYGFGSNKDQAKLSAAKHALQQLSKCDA", "chain of UniProt E0Y3X0 (whole entry, looked up)": "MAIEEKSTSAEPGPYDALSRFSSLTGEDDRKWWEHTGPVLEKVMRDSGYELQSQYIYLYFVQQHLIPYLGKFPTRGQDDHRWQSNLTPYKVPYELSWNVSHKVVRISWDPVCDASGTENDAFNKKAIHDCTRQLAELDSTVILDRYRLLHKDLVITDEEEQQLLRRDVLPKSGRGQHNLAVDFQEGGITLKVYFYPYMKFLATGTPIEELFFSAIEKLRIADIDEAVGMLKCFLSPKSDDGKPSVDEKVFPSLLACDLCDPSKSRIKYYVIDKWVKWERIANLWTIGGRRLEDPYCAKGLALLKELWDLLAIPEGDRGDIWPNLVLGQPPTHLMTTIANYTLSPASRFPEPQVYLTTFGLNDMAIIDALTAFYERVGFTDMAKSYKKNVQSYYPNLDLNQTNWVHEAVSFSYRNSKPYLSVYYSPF", "chain of UniProt Q29437 (whole entry, looked up)": "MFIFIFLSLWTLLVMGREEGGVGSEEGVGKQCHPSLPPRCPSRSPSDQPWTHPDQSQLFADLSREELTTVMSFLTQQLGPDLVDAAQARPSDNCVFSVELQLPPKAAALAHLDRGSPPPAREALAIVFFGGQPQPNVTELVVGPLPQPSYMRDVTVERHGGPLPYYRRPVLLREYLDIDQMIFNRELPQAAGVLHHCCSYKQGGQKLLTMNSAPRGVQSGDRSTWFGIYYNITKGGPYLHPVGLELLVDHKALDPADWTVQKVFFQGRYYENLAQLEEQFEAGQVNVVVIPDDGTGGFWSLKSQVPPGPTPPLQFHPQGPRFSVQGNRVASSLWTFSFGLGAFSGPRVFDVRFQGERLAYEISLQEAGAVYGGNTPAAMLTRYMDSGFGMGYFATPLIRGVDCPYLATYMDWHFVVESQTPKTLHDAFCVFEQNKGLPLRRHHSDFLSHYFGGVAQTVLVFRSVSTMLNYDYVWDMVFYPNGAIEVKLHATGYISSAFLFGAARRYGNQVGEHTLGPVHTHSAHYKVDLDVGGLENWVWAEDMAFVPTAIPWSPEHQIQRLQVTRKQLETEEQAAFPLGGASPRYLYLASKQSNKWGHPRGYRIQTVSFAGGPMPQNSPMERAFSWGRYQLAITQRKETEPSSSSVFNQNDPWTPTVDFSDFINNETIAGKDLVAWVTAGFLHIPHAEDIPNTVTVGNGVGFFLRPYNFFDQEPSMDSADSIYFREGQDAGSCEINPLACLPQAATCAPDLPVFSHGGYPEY"}
{"Molecule": "B1 (ileS)", "substrate": "CC[C@H](C)[C@H](N)C(=O)O", "pH": "pH 7.2", "temperature": "37 °C", "with": "ATP 2 mM", "kcat [s⁻¹]": "0.001 ± 0.000333"}
{"Molecule": "Dcr-2 (Drosophila melanogaster, UniProt A1ZAW0)", "substrate": "Nc1ncnc2c1ncn2[C@@H]1O[C@H](COP(=O)(O)OP(=O)(O)OP(=O)(O)O)[C@@H](O)[C@H]1O", "pH": "pH 7.4", "temperature": "25 °C", "with": "dsRNA, magnesium acetate 3.3 mM", "kcat [s⁻¹]": "1.55 ± 0.233"}
{"Molecule": "α-amino ester hydrolase (Xanthomonas campestris, UniProt Q8P8K4)", "substrate": "CC1=C(C(=O)O)N2C(=O)[C@@H](NC(=O)[C@H](N)c3ccccc3)[C@H]2SC1", "pH": "pH 7", "temperature": "25 °C", "notes": "phosphate 100 mM", "kcat [s⁻¹]": 200}
{"Molecule": "CYP6A8 (Drosophila melanogaster, UniProt Q27593)", "substrate": "CCCCCCCCCCCC(=O)O", "matrix": "DLPC", "pH": "pH 7.4", "temperature": "37 °C", "notes": "total hydroxylation", "with": "P450 reductase, NADPH", "kcat [s⁻¹]": "0.000633 ± 3.33e-05"}
{"Molecule": "B2 (PRODH2 157-515)", "substrate": "O=C(O)[C@@H]1C[C@@H](O)CN1", "pH": "pH 7.5", "temperature": "25 °C", "with": "O2", "kcat [s⁻¹]": "0.002 ± 0.001"}
{"Molecule": "B3 (enzyme)", "substrate": "NC(=O)c1ccc[n+]([C@@H]2O[C@H](COP(=O)(O)OP(=O)(O)OC[C@H]3O[C@@H](n4cnc5c(N)ncnc54)[C@H](OP(=O)(O)O)[C@@H]3O)[C@@H](O)[C@H]2O)c1", "pH": "pH 7.3", "temperature": "27 °C", "notes": "cofactor varied", "kcat [s⁻¹]": "84.7 ± 2"}
{"Molecule": "B4 (SULT1A1 I89A)", "substrate": "C[C@]12CC[C@@H]3c4ccc(O)cc4CC[C@H]3[C@@H]1CC[C@@H]2O", "pH": "pH 7.2", "temperature": "25 °C", "with": "PAPS 0.060–1.5 µM", "kcat [s⁻¹]": 0.9}
{"Molecule": "B5 (BaiA2)", "substrate": "C[C@H](CCC(=O)SCCNC(=O)CCNC(=O)[C@H](O)C(C)(C)COP(=O)(O)OP(=O)(O)OC[C@H]1O[C@@H](n2cnc3c(N)ncnc32)[C@H](O)[C@@H]1OP(=O)(O)O)[C@H]1CC[C@H]2[C@@H]3[C@H](O)C[C@@H]4CC(=O)CC[C@]4(C)[C@H]3CC[C@]12C", "pH": "pH 8.7", "temperature": "37 °C", "with": "NADH", "kcat [s⁻¹]": 0.167}
{"Molecule": "B6 (oxdC T165S)", "substrate": "O=C(O)C(=O)O", "pH": "pH 4.2", "temperature": "25 °C", "kcat [s⁻¹]": "20 ± 1"}
{"Molecule": "B7 (Tat)", "substrate": "O=C(O)C(=O)Cc1ccc(O)cc1", "pH": "pH 7", "temperature": "38 °C", "with": "PLP", "kcat [s⁻¹]": "15.8 ± 4.33"}
{"Molecule": "Plasma amine oxidase (Bos taurus, UniProt Q29437)", "substrate": "NCCOc1ccc2cc(CN)ccc2c1", "pH": "pH 7.2", "temperature": "30 °C", "kcat [s⁻¹]": "0.0244 ± 0.0032"}
{"Molecule": "B8 (sacB)", "substrate": "OC[C@H]1O[C@@](CO)(O[C@H]2O[C@H](CO)[C@@H](O)[C@H](O)[C@H]2O)[C@@H](O)[C@@H]1O", "pH": "pH 6.6", "kcat [s⁻¹]": "198 ± 3.3"}
{"Molecule": "NotC (UniProt E0Y3X0)", "substrate": "CC(C)=CCOP(=O)(O)OP(=O)(O)O", "pH": "pH 7.5", "with": "6-hydroxy-deoxybrevianamide E 22, MgCl2 5 mM", "kcat [s⁻¹]": "1.12 ± 0.0233"}
{"Molecule": "B9 (HCT R356E)", "substrate": "NCc1ccc(O)c(O)c1", "pH": "pH 8", "notes": "pseudo-first-order", "with": "p-coumaroyl CoA", "kcat [s⁻¹]": "6.7 ± 0.6"}
{"Molecule": "DYN1 (Saccharomyces cerevisiae, UniProt P36022)", "substrate": "Nc1ncnc2c1ncn2[C@@H]1O[C@H](CO[P@](=O)(O)O[P@](=O)(O)O[P@@](=O)(O)S)[C@@H](O)[C@H]1O", "pH": "pH 7.2", "kcat [s⁻¹]": "4.52 ± 0.42"}
{"Molecule": "enzyme (Thermobifida fusca, UniProt Q47KB1)", "substrate": "Nc1c(S(=O)(=O)O)cc(Nc2cccc(S(=O)(=O)CCOS(=O)(=O)O)c2)c2c1C(=O)c1ccccc1C2=O", "pH": "pH 3.5", "kcat [s⁻¹]": 10}
{"note": "Excerpt of the above:"}
{"Molecule": "α-amino ester hydrolase (Xanthomonas campestris, UniProt Q8P8K4)", "substrate": "CC1=C(C(=O)O)N2C(=O)[C@@H](NC(=O)[C@H](N)c3ccccc3)[C@H]2SC1", "pH": "pH 7", "temperature": "25 °C", "notes": "phosphate 100 mM", "kcat [s⁻¹]": 200}
